# Measured values of several laboratories.
# Numbers after ± are the reported error.
SMILES,organism,assay,system,setting,how to read,endpoint,value
Cc1cc(C#N)cc(C)c1Oc1nc(NC2CCN(Cc3ccc(C(N)=O)cc3)CC2)nc2ccccc12,HIV-1,,"TZM-bl, NL4-3 wild type",,relative to: CC50 over EC50,selectivity index,> 136
N=C(N)c1ccc(-c2ccc(-c3cccs3)o2)nc1,Salmonella typhimurium,"mutagenicity, Ames test",TA1535,"10 or 20 µM, 48 h, pH 7.4, higher tested concentration, together with: rat liver S9 mix",,revertant colonies,24 ± 2.7 colonies/plate
C=CC(=O)Nc1cccc(Cn2ncc3cnc(Nc4cnn(CCOC)c4)nc32)c1,Salmonella typhimurium,Ames test,TA100,"concentration not given, with and without S9",,mutagenicity,negative
N=C(N)NCCC[C@@H]1NC(=O)[C@H](CCCNC(=N)N)NC(=O)[C@H](CCCNC(=N)N)NC(=O)[C@H](CCCNC(=N)N)NC(=O)[C@H](Cc2c[nH]c3ccccc23)NC(=O)[C@H](CCCNC(=N)N)NC(=O)[C@H](CCCNC(=N)N)NC(=O)[C@@H](N)CCCCn2cc(nn2)C[C@@H](C(N)=O)NC1=O,Staphylococcus aureus,broth microdilution,ATCC 25923,"2 h, 37 °C, together with: 12.5% fetal bovine serum preincubation",,MIC,15.6 µg/mL
CC(=NNC(=N)N)c1nnn(-c2ccc(C#CC3(O)CCCCC3)cc2)c1C,Staphylococcus aureus,,"Caco-2, MRSA NRS384 USA300",,relative to: Caco-2 IC50 over MIC,selectivity index,5.5
N#Cc1ccc(-c2ccc(-c3cccs3)s2)cc1,Salmonella typhimurium,"mutagenicity, Ames test",TA1535,"10 or 20 µM, 48 h, pH 7.4, higher tested concentration, together with: rat liver S9 mix",,revertant colonies,26.7 ± 2.1 colonies/plate
CC(C)C[C@@H]1NC(=O)[C@@H](Cc2ccccc2)NC(=O)[C@H](CCN)NC(=O)[C@@H](NC(=O)[C@H](CN)NC(=O)[C@@H](NC(=O)C[C@H](CN)c2cccc(Cl)c2)[C@@H](C)O)CCNC(=O)[C@H]([C@@H](C)O)NC(=O)[C@H](CCN)NC(=O)[C@H](CCN)NC1=O,Acinetobacter baumannii NCTC 13301,,"neutropenic mouse, lung infection","subcutaneous, 25.8 mg/kg three doses every 4 h",,tolerability,not toxic
CCOC(=O)c1c(-c2ccccc2)oc2ccc(NS(=O)(=O)c3ccc(F)cc3)cc12,porcine epidemic diarrhea virus,,Vero,,relative to: CC50 over EC50,selectivity index,5
N=C(N)c1ccc(-c2ccc(-c3cccs3)o2)cc1,Salmonella typhimurium,"mutagenicity, Ames test",TA1535,"5 or 10 µM, 48 h, pH 7.4, lower tested concentration, together with: rat liver S9 mix",,revertant colonies,11.7 ± 1.5 colonies/plate
CC[C@H](C)[C@H](NC(=O)[C@@H](CCCNC(=N)N)NC(=O)[C@H](CCCNC(=N)N)NC(=O)[C@H](CCCN)NC(=O)[C@H](Cc1c[nH]c2ccccc12)NC(=O)[C@H](CCCNC(=N)N)NC(=O)[C@@H]1CCCN1C(=O)[C@H](CCCNC(=N)N)NC(=O)[C@@H]1CCCN1C(=O)[C@H](CC(C)C)NC(=O)[C@H](Cc1ccc(O)cc1)NC(=O)[C@@H]1CCCN1C(=O)[C@@H]1CCCN1C(=O)[C@H](CCCCN)NC(=O)[C@H](CC(=O)O)NC(=O)[C@@H](N)C(C)C)C(=O)N[C@@H](Cc1ccc(O)cc1)C(=O)N[C@@H](CC(N)=O)C(=O)N[C@H](CCCNC(=N)N)C(N)=O,Staphylococcus aureus,LC-MS,cell pellet,"8 µg/mL, 30 min",relative to: added,uptake,23%
N#Cc1ccc(-c2ccc(-c3cccs3)o2)nc1,Salmonella typhimurium,"mutagenicity, Ames test",TA1535,"5 or 10 µM, 48 h, pH 7.4, lower tested concentration, together with: rat liver S9 mix",,revertant colonies,28.7 ± 3.1 colonies/plate
COc1ccc(CNc2nc(N3CCC[C@H]3CO)ncc2C(=O)NN)cc1Cl,Salmonella typhimurium,,TA102,"125 µg/plate, together with: rat liver S9",,revertant count,262 ± 7
N#Cc1ccc(-c2ccc(-c3cccs3)o2)cc1,Salmonella typhimurium,"mutagenicity, Ames test",TA1535,"10 or 20 µM, 48 h, pH 7.4, higher tested concentration, together with: rat liver S9 mix",,revertant colonies,24.7 ± 2.5 colonies/plate
Cc1cc(C#N)cc(C)c1Oc1nc(NC2CCN(Cc3ccc(S(N)(=O)=O)cc3)CC2)nc2ccccc12,HIV-1,,"TZM-bl, NL4-3 wild type",,relative to: CC50 over EC50,selectivity index,> 142
C/C(=N\OCCCN1CCCCC1)c1ccc(C(F)(F)F)cc1,Salmonella typhimurium,,TA98 and TA100,concentration not given,,mutagenicity,negative
COc1ccc(CNc2nc(N3CCC[C@H]3CO)ncc2C(=O)NNC(=O)c2cnc(N3CCC[C@H]3CO)nc2NCc2ccc(OC)c(Cl)c2)cc1Cl,Salmonella typhimurium,,TA97a,"250 µg/plate, 48 h, together with: rat liver S9",,revertant count,161 ± 31
Cc1cc(C#N)cc(C)c1Oc1nc(NC2CCN(Cc3ccc(S(C)(=O)=O)cc3)CC2)nc2ccccc12,HIV-1,,"TZM-bl, NL4-3 wild type",,relative to: CC50 over EC50,selectivity index,> 163
N#Cc1ccc(-c2ccc(-c3ccco3)o2)nc1,Salmonella typhimurium,"mutagenicity, Ames test",TA1535,"5 or 10 µM, 48 h, pH 7.4, lower tested concentration, together with: rat liver S9 mix",,revertant colonies,29.7 ± 3.2 colonies/plate
CCC(=O)N(C)c1ccc(Cl)c(Cl)c1,Salmonella typhimurium,Ames test,TA100,"1.00 mg/plate, with rat liver S9",,revertant colonies,53 ± 4.6 revertants/plate

# Excerpt of the above:
SMILES,organism,assay,system,setting,how to read,endpoint,value
CCC(=O)N(C)c1ccc(Cl)c(Cl)c1,Salmonella typhimurium,Ames test,TA100,"1.00 mg/plate, with rat liver S9",,revertant colonies,53 ± 4.6 revertants/plate
COc1ccc(CNc2nc(N3CCC[C@H]3CO)ncc2C(=O)NNC(=O)c2cnc(N3CCC[C@H]3CO)nc2NCc2ccc(OC)c(Cl)c2)cc1Cl,Salmonella typhimurium,,TA97a,"250 µg/plate, 48 h, together with: rat liver S9",,revertant count,161 ± 31
N=C(N)NCCC[C@@H]1NC(=O)[C@H](CCCNC(=N)N)NC(=O)[C@H](CCCNC(=N)N)NC(=O)[C@H](CCCNC(=N)N)NC(=O)[C@H](Cc2c[nH]c3ccccc23)NC(=O)[C@H](CCCNC(=N)N)NC(=O)[C@H](CCCNC(=N)N)NC(=O)[C@@H](N)CCCCn2cc(nn2)C[C@@H](C(N)=O)NC1=O,Staphylococcus aureus,broth microdilution,ATCC 25923,"2 h, 37 °C, together with: 12.5% fetal bovine serum preincubation",,MIC,15.6 µg/mL
